# Literature values as cited in several papers.
# ± marks the error that the study gave.
SMILES,system,setting,how to read,quantity,result
COc1cc(N2CCC(N3CCN(C)CC3)CC2)ccc1Nc1ncc(Cl)c(Nc2ccccc2P(C)(C)=O)n1,healthy human,"oral, 180 mg, added: high-fat meal",reference: fasted,Tmax delay,3.5 h
CS(=O)(=O)CCNCc1ccc(-c2ccc3ncnc(Nc4ccc(OCc5cccc(F)c5)c(Cl)c4)c3c2)o1,"human cancer patients, plasma","1250 mg multiple doses, fed, median",,Tmax,3.5 h
COc1cccc(CCc2ccccc2OCC(CN(C)C)OC(=O)CCC(=O)O)c1 (racemic),human,"oral, 50 mg single dose as hydrochloride, geometric mean",,Tmax,0.66 h
O=C(CCCCCCC(=O)Nc1ccccc1)NO,human,"200 mg, literature mean",,Tmax,2 h
Cc1[nH]c2ccccc2c1CCNCc1ccc(/C=C/C(=O)NO)cc1,human,high-fat meal,reference: fasted,Tmax delay,~2 h
O[C@@H](COc1cccc2ncccc12)CN1CCN([C@@H]2c3ccccc3[C@@H]3[C@H](c4ccccc42)C3(F)F)CC1,human,"oral, dose not given",,Tmax,1 to 4 h
C[C@H](Nc1ncnc2[nH]cnc12)c1cc2cccc(Cl)c2c(=O)n1-c1ccccc1,"human, hematologic malignancy","oral, 25 mg twice daily",,Tmax,1 to 2 h
COc1ccc(-n2nc(C(N)=O)c3c2C(=O)N(c2ccc(N4CCCCC4=O)cc2)CC3)cc1,human,"oral, dose not given, immediate-release tablet",,Tmax,≤ 3 h
COc1ccnc(C[S+]([O-])c2nc3ccc(OC(F)F)cc3[nH]2)c1OC (centres unmarked),"human, nonobese children","age 6-11 y, historical",median,Tmax,2 h
CC(C)NCC1CCc2cc(CO)c([N+](=O)[O-])cc2N1 (centres unmarked),healthy human,"oral, 1000 mg",,Tmax,1.4 ± 0.417 h
CO[C@H]1C[C@@H]2CC[C@@H](C)[C@@](O)(O2)C(=O)C(=O)N2CCCC[C@H]2C(=O)O[C@H]([C@H](C)C[C@@H]2CC[C@@H](OC(=O)C(C)(CO)CO)[C@H](OC)C2)CC(=O)[C@H](C)/C=C(\C)[C@@H](O)[C@@H](OC)C(=O)[C@H](C)C[C@H](C)/C=C/C=C/C=C/1C,human,"intravenous, 25 mg once weekly, day 7 or 28",,Tmax,0.5 h

# A few entries again:
SMILES,system,setting,how to read,quantity,result
COc1ccnc(C[S+]([O-])c2nc3ccc(OC(F)F)cc3[nH]2)c1OC (centres unmarked),"human, nonobese children","age 6-11 y, historical",median,Tmax,2 h
